Measured values collected from several papers.
Lines come from different studies, so protocols differ. “And” joins repeats or separate records; there may be more than shown. ± marks the error that the study gave.
Prkcd C1b domain: Protein kinase C delta type, C1b domain (Prkcd, Mus musculus, UniProt P28867)
MAPK8: Mitogen-activated protein kinase 8 (MAPK8, Homo sapiens, UniProt P45983)
Pick1 PDZ domain: PRKCA-binding protein, PDZ domain (Pick1, Rattus norvegicus, UniProt Q9EP80)
Glutamate receptor ionotropic, kainate 3: Glutamate receptor ionotropic, kainate 3 (Rattus norvegicus, UniProt P42264)
FOLH1: Glutamate carboxypeptidase 2 (FOLH1, Homo sapiens, UniProt Q04609)
Sigmar1: Sigma non-opioid intracellular receptor 1 (Sigmar1, Rattus norvegicus, UniProt Q9R0C9)
VHL with elongin B, C: von Hippel-Lindau disease tumor suppressor, with elongin B, C (VHL, Homo sapiens, UniProt P40337)
MAPK14: Mitogen-activated protein kinase 14 (MAPK14, Homo sapiens, UniProt Q16539)

Amino acid sequences for entries named in this document (tags omitted). A change or cut given only in a name is not applied to a line headed by its entry. Residues count along the entry.
UniProt P28867, 231-280 limits assumed: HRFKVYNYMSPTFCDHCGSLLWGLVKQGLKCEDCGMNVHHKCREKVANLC
UniProt P45983, whole entry: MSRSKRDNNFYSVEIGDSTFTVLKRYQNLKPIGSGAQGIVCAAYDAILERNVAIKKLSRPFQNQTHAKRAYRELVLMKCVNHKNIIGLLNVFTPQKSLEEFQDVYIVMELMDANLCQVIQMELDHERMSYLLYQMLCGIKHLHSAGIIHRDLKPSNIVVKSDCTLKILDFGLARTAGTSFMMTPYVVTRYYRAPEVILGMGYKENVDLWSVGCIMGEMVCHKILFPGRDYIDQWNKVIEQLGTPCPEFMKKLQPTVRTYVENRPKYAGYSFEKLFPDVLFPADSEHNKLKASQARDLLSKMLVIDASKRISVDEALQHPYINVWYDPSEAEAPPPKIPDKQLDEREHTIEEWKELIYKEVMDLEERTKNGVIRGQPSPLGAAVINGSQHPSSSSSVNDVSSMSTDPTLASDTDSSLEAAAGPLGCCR
UniProt P45983, 1-384 isoform 3: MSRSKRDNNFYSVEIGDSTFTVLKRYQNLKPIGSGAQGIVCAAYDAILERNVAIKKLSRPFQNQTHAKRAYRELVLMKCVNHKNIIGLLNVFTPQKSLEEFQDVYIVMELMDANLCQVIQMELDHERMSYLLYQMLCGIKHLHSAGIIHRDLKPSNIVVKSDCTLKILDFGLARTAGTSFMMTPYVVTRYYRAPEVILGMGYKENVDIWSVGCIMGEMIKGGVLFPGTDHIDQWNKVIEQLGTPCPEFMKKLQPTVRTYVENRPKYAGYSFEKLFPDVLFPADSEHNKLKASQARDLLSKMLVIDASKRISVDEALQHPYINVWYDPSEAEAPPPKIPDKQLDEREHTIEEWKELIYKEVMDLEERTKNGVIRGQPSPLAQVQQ
UniProt Q9EP80, whole entry: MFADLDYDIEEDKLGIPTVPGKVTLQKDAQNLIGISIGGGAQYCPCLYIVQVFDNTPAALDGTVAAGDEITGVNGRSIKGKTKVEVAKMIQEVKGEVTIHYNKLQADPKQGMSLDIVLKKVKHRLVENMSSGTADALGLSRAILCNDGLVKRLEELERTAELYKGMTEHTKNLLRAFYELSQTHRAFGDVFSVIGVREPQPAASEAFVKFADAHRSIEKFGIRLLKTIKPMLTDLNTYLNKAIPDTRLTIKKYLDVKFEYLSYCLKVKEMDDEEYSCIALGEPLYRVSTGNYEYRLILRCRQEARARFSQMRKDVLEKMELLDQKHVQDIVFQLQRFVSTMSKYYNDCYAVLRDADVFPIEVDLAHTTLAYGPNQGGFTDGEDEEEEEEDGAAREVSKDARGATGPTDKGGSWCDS
UniProt P42264, 32-919 limits assumed: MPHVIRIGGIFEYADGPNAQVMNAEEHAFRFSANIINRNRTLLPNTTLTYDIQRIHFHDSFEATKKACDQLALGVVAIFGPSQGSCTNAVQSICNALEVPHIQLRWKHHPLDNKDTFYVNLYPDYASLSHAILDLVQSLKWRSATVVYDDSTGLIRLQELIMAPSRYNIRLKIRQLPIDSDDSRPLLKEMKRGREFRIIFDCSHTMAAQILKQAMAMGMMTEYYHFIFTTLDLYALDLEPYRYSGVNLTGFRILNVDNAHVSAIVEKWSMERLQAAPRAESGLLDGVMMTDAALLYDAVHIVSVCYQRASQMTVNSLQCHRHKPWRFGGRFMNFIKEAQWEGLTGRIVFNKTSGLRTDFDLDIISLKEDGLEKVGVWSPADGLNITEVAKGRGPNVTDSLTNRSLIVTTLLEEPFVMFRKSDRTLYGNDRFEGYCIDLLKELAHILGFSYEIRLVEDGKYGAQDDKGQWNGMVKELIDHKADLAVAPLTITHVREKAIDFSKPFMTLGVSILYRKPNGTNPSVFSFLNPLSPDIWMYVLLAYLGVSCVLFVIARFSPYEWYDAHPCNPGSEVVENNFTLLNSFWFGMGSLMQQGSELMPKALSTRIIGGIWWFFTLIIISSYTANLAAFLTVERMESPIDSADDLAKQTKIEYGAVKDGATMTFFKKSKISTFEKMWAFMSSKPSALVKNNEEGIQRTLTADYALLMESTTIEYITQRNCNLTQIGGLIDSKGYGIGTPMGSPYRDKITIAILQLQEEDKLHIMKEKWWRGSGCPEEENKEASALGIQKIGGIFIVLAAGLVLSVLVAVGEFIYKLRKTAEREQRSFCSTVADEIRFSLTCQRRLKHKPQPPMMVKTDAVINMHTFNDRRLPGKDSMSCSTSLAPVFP
UniProt Q04609, whole entry: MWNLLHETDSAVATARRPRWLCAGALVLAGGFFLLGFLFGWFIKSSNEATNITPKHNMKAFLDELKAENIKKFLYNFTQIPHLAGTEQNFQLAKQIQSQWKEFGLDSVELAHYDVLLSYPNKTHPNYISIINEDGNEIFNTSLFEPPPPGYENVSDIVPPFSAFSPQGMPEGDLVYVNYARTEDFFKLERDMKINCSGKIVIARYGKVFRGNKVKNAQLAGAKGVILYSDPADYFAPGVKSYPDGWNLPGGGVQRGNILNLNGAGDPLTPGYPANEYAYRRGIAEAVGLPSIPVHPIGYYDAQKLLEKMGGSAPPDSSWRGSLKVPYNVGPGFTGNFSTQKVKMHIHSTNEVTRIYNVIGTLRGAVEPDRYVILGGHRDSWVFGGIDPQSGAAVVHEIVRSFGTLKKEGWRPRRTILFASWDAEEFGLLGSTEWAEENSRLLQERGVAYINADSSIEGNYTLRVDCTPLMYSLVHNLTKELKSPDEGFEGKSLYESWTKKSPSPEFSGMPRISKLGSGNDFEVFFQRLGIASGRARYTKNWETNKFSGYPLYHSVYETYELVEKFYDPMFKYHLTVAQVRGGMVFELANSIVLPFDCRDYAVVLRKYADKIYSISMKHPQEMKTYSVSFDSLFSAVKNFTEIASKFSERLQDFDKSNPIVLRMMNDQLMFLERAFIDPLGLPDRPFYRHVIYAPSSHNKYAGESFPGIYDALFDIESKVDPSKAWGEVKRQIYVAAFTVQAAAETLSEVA
UniProt Q9R0C9, whole entry: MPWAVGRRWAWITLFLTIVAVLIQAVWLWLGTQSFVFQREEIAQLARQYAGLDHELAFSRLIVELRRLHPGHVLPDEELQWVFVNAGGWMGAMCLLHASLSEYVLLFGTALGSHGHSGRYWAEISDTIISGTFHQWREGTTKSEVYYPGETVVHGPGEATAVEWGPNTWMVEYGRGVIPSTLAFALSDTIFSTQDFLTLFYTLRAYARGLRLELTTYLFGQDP
UniProt Q16539, whole entry: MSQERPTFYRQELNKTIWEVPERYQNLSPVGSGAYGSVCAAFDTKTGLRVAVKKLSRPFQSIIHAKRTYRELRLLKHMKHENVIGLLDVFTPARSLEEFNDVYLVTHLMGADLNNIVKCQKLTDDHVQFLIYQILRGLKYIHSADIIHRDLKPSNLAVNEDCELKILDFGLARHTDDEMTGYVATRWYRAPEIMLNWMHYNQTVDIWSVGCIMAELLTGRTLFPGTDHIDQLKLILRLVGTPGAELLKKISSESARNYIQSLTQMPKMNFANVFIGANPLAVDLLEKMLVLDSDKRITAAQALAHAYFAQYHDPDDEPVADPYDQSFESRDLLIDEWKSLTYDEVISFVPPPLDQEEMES
UniProt P47900, whole entry: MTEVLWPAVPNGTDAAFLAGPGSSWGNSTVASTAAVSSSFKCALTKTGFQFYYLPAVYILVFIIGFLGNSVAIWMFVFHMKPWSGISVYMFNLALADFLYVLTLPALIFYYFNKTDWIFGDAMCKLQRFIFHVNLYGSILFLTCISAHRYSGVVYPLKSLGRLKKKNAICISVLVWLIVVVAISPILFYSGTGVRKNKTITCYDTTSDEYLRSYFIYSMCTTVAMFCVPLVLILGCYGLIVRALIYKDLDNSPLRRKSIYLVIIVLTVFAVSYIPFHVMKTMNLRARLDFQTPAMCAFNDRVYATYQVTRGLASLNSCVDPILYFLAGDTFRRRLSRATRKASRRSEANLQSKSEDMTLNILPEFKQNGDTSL
UniProt Q8TBC4, 2-463 limits assumed: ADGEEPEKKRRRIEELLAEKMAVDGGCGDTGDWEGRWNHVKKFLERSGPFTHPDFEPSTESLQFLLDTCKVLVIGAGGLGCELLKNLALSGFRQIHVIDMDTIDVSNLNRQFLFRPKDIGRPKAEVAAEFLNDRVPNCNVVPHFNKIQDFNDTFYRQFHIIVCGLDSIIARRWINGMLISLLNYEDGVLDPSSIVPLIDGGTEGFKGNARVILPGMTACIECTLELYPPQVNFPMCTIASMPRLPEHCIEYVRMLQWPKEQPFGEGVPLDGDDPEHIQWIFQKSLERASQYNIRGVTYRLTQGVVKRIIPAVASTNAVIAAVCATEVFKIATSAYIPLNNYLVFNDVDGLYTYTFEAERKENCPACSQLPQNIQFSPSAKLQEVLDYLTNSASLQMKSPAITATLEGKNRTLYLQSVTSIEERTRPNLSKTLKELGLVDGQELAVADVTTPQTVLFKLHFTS
UniProt P13569, whole entry: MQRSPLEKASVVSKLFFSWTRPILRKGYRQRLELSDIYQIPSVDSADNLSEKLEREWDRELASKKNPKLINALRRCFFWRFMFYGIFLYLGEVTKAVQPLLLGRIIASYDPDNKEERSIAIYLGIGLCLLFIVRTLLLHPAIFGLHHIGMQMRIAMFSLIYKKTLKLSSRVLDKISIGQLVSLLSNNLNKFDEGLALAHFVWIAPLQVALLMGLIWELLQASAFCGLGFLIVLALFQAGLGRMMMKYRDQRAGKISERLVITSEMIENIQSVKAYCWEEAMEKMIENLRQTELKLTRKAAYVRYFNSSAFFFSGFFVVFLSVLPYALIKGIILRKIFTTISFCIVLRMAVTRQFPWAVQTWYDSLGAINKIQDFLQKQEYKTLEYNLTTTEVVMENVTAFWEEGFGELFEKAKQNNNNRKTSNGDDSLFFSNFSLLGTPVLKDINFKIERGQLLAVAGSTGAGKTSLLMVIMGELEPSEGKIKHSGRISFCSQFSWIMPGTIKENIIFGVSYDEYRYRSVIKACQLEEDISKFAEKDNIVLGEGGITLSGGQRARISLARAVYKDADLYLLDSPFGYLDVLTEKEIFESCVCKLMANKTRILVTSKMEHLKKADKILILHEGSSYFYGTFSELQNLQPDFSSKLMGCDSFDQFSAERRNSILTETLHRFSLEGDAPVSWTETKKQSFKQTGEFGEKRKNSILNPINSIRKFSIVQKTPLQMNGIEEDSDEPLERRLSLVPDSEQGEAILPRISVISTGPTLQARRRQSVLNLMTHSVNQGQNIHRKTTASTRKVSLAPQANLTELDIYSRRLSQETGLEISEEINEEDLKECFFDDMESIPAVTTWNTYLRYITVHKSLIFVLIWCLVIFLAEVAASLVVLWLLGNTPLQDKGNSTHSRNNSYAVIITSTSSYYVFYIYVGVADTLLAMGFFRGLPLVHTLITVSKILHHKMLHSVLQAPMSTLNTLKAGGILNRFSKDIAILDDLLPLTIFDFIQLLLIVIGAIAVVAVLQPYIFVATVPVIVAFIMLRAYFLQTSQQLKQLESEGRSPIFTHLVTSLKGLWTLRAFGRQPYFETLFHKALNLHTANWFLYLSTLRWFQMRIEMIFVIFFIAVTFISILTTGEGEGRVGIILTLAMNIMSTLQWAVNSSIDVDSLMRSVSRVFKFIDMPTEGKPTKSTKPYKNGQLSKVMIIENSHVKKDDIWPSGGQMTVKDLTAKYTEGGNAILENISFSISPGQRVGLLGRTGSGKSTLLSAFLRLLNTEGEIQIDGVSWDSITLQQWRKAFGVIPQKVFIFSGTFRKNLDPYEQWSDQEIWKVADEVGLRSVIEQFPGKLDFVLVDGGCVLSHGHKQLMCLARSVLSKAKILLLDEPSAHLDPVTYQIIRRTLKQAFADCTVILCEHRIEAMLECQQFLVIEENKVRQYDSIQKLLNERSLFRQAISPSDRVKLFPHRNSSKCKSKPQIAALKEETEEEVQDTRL
UniProt Q05655, whole entry: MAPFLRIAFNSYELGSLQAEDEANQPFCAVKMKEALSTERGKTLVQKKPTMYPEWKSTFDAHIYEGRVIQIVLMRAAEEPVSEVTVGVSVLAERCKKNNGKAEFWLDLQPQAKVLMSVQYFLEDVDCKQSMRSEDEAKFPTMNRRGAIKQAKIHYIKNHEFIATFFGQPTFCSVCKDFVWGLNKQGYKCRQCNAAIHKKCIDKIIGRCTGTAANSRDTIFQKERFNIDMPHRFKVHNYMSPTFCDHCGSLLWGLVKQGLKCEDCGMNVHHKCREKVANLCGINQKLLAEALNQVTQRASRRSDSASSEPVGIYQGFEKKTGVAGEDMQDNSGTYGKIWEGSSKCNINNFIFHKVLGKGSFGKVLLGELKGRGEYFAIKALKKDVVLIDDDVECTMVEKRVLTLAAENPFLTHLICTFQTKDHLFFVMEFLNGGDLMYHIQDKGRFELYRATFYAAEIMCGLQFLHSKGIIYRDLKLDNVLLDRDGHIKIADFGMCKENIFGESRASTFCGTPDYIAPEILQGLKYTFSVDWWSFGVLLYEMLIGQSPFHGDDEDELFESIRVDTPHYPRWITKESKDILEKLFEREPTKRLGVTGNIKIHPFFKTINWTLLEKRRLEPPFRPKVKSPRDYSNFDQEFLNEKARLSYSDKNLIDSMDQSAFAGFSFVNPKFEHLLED

O=C1OC2CC1N(C(=O)c1cc(Cc3n[nH]c(=O)c4ccccc34)ccc1F)C2 (centres unmarked)
Ki (PARP1 (Homo sapiens, UniProt P09874); tracer displacement; cells): 5.49 ± 1.68 nM

CCCCCCCCC(CCC=CCCC(CCCCCCCC)C(=O)OCC1(CO)CC(=C(C)C)C(=O)O1)C(=O)OCC1(CO)CC(=C(C)C)C(=O)O1 (racemic)
Ki (PRKCA (Homo sapiens, UniProt P17252); binding, [3H]PDBu competition; with: phosphatidylserine 100 µg/mL): 8.4 ± 1.4 nM

CCOC(=O)COC(=O)[C@@H]1C(C=O)=Cc2cc3c(cc2[C@H]1c1cc(OC)c(OC)c(OC)c1)OCO3
EC50 (Leishmania infantum; promastigote, iRFP): 64800 ± 4900 nM

CCCCCCCCC(CCCCCCCCC=CCCCCCCCCC(CCCCCCCC)C(=O)OCC1(CO)CC(=C(C)C)C(=O)O1)C(=O)OCC1(CO)CC(=C(C)C)C(=O)O1 (racemic)
Ki (Prkcd C1b domain; binding, [3H]PDBu competition; 5 min, 37 °C, with: phosphatidylserine 100 µg/mL): 3 ± 0.76 nM

Cc1cc(NC(=O)c2cccc(NC(=O)C3=CC(C)(C)CCC3=O)c2)ccc1Nc1nccc(-c2cccnc2)n1
Ki (MAPK8; SPR two-step reversible model): 81 nM

CCOC(=O)N(Cc1ccccc1)C(=O)/C(C#N)=C/c1ccc(Cl)c(Cl)c1
Ki (Pick1 PDZ domain; binding, fluorescence polarization; with: labelled hDAT C-terminal peptide): 14000 ± 1700 nM

O=C(O)c1cc(C(=O)N2CCC[C@H]2C(=O)O)cc([C@H]2CCN[C@@H]2C(=O)O)c1
Ki (Glutamate receptor ionotropic, kainate 3; binding, radioligand binding; Sf9 membranes; homomeric receptor, with: [3H]kainate): 2410 ± 1060 nM

COC(=O)C1(C)C=C(C(=O)NC(C)(C)C)C(=O)CC1 (centres unmarked)
Ki (MAPK8; D-peptide displacement, fluorescence polarization): > 200000 nM

O=C(O)c1cc(C(=O)N[C@@H](Cc2c[nH]c3ccccc23)C(=O)O)cc([C@H]2CCN[C@@H]2C(=O)O)c1
Ki (Glutamate receptor ionotropic, kainate 3; binding, radioligand binding; Sf9 membranes; homomeric receptor, with: [3H]kainate): 10000 to 50000 nM

CCOC(=O)NC(=O)/C(C#N)=C/c1ccc(C(F)(F)F)c(F)c1
Ki (Pick1 PDZ domain; binding, fluorescence polarization; with: labelled hDAT C-terminal peptide): 17000 ± 2700 nM

CC(C)[C@H](NC(=O)c1cc(C(=O)O)cc([C@H]2CCN[C@@H]2C(=O)O)c1)C(=O)O
Ki (Glutamate receptor ionotropic, kainate 3; binding, radioligand binding; Sf9 membranes; homomeric receptor, with: [3H]kainate): 5800 ± 540 nM

CC1(C)C(=CC=CC=CC=CC2=[N+](CCCCS(=O)(=O)[O-])c3ccc4ccccc4c3C2(C)C)N(CCCCCC(=O)NCCOCCOCC(=O)NCCCC[C@H](NC(=O)N[C@@H](CCC(=O)O)C(=O)O)C(=O)O)c2ccc3ccccc3c21
Ki (FOLH1; enzyme activity, inhibitor; compound in DMSO, with: [3H]NAAG 30 nM): 0.4 ± 0.06 nM

CNc1nc(C#CCCCC(=O)NCCNC(=O)CCCC[C@@H]2SC[C@@H]3NC(=O)N[C@@H]32)nc2c1ncn2[C@H]1C[C@H](OP(=O)(O)O)[C@]2(COP(=O)(O)O)C[C@H]12
Ki (P2Y purinoceptor 1 (P2RY1, Homo sapiens, UniProt P47900); binding, radioligand binding; Sf9 cell membranes; 30 min, 4 °C, with: iodinated P2Y1 antagonist radioligand): > 10000 nM

Cc1ccc(N=Nc2c(O)c(S(=O)(=O)O)cc3cc(S(=O)(=O)O)ccc23)c(C)c1
Ki (Bcl-2-related protein A1 (Mus musculus, UniProt Q07440, C113S/P104K); binding, inhibitor, fluorescence polarization; with: FITC-labelled Noxa peptide): > 20300 nM

C=C1C[C@]2(C(=O)OC)C=C(C(=O)OC(C)(C)C)C(=O)[C@H]1C2 (relative stereo)
Ki (MAPK8; docking peptide binding, competitive inhibitor, fluorescence polarization; with: labelled JIP1 peptide): 2100 ± 200 nM

CC(C)C[C@@H]1NC(=O)N([C@H](c2cn([C@@H](CC(C)C)C(=O)NCCOCCOCCNC(=O)CCC(=O)N[C@@H](CCCCNS(=O)(=O)c3cccc4c(N(C)C)cccc34)C(=O)N[C@H]3CCOC3=O)nn2)C(C)C)C1=O
Ki (NEDD8-activating enzyme E1 catalytic subunit, with NAE1 (UBA3, Homo sapiens, UniProt Q8TBC4); inhibitor, fluorescence polarization competition): 6400 ± 300 nM

CCOC(=O)c1[nH]c2cc(Cl)ccc2c1C(C(=O)NCc1ccccc1)N(CC(C)C)C(C)=O (centres unmarked)
Ki (MDM2 (Homo sapiens, UniProt Q00987); binding, fluorescence polarization): 4000 nM

COc1cccc(-c2c(C#N)c(N)nc(SCc3ncc[nH]3)c2C#N)c1
Ki (ADORA2B (Homo sapiens, UniProt P29275); radioligand displacement; HEK293 membranes; with: 25 nM [3H]NECA): 38 ± 21 nM

CCOC(=O)N(C)C(=O)/C(C#N)=C/c1ccc(Cl)c(Cl)c1
Ki (Pick1 PDZ domain; binding, fluorescence polarization; with: labelled hDAT C-terminal peptide): 55000 ± 13000 nM

CC[N+]1=C(C=CC=CC=C2N(CCCCCC(=O)NCCCC[C@H](NC(=O)N[C@@H](CCC(=O)O)C(=O)O)C(=O)O)c3ccc4c(S(=O)(=O)O)cc(S(=O)(=O)O)cc4c3C2(C)C)C(C)(C)c2c1ccc1c(S(=O)(=O)O)cc(S(=O)(=O)[O-])cc21
Ki (FOLH1; enzyme activity, inhibitor; compound in water, with: [3H]NAAG 30 nM): 0.09 ± 0.04 nM

FC1CCN(c2ccc(-c3ccc4sc(-c5ccnnc5)cc4n3)cn2)CC1
Ki (Alpha-synuclein, PD brain aggregates (SNCA, Homo sapiens, UniProt P37840); binding; Parkinson's disease brain homogenate; with: [3H]asyn-44 1 nM): 26.4 nM

C/C(=N\OCCN1CCc2ccccc2CC1)c1ccc(C(F)(F)F)cc1
Ki (Sigmar1; radioligand binding; rat): 44.8 nM and 44.8 to 48.3 nM

N#Cc1ccc(S(=O)(=O)NCc2cn(CB(O)O)nn2)cc1
Ki (KPC-2 (Klebsiella pneumoniae, UniProt Q9F663); inhibitor, competition kinetics; 5 min preincubation, with: nitrocefin 100 µM): 1 ± 0.1 nM

O=C(CNc1ccc2ccccc2c1)N/N=C/c1ccc(C(=O)O)cc1
Ki (CFTR (Homo sapiens, UniProt P13569); apical chloride current, inhibitor; FRT cells expressing CFTR; basolateral membrane permeabilised): 25000 to 50000 nM

Cc1cccc(CSc2nc(N)c(C#N)c(-c3cccc(F)c3)c2C#N)n1
Ki (ADORA1 (Homo sapiens, UniProt P30542); radioligand competition binding; HEK293 membranes; 1 h, 25 °C, with: [3H]DPCPX 0.5 nM): 16 ± 4.6 nM

Cc1ncsc1-c1ccc(CNC(=O)[C@@H]2C[C@@H](O)CN2C(=O)c2cccc(O)c2)cc1
Ki (VHL with elongin B, C; inhibitor, fluorescence polarization; VHL-elonginB-elonginC complex; 1% DMSO, with: FAM-DEALA-Hyp-YIPD peptide): 2800 nM

C#CCCCCOC(=O)[C@]1(C)C=C(C(=O)OC(C)(C)C)C(=O)CC1
Ki (MAPK14; D-peptide displacement, fluorescence polarization): 1300 nM

COc1cc(Nc2ccnc3cc(-c4ccncc4)ccc23)cc(OC)c1OC
Ki (BMP2K (Homo sapiens, UniProt Q9NSY1)): 8600 nM

COC(=O)[C@@H]1C(C=Nc2cncnc2NC(C)=O)=Cc2cc3c(cc2[C@H]1c1cc(OC)c(OC)c(OC)c1)OCO3
EC50 (Leishmania infantum; iRFP fluorescence; mouse splenocytes infected, amastigote, iRFP, ex vivo splenic explant; 48 h): 15600 ± 800 nM

CC1(C)C(=CC=CC=CC=CC2=[N+](CCCCS(=O)(=O)[O-])c3ccc4ccccc4c3C2(C)C)N(CCCCCC(=O)NCCCCC(NC(=O)CCCCCCC(=O)NCCCC[C@H](NC(=O)N[C@@H](CCC(=O)O)C(=O)O)C(=O)O)C(=O)O)c2ccc3ccccc3c21 (some centres unmarked)
Ki (FOLH1; enzyme activity, inhibitor; compound in DMSO, with: [3H]NAAG 30 nM): 0.2 ± 0.005 nM

N=C(N)NCCC[C@H](NC(=O)c1cc(C(=O)O)cc([C@H]2CCN[C@@H]2C(=O)O)c1)C(=O)O
Ki (Glutamate receptor ionotropic, kainate 1 (Rattus norvegicus, UniProt P22756); binding, radioligand binding; Sf9 membranes; homomeric receptor, with: [3H]SYM2081): 2650 ± 1060 nM

CCOc1cc(C(C)(C)C)ccc1C1=N[C@@H](c2ccc(Cl)cc2)[C@@H](c2ccc(Cl)cc2)N1C(=O)N1CCN(CC(=O)NCCOCCOCCOCCNC(=O)CN2CCN(C(=O)N3C(c4ccc(C(C)(C)C)cc4OCC)=N[C@H](c4ccc(Cl)cc4)[C@@H]3c3ccc(Cl)cc3)CC2=O)C(=O)C1
Ki (E3 ubiquitin-protein ligase Mdm2, with p53 (MDM2, Homo sapiens, UniProt Q00987); binding, fluorescence polarization competition): 120 ± 40 nM

C/C(=N\OCCN1CCN(C2COC2)CC1)c1ccc(C(F)(F)F)cc1
Ki (Sigmar1; radioligand binding; rat): 108 ± 2.4 nM

O=C(OCc1ccccc1)c1cccc(OC2CCNCC2)c1
Ki (Glycylpeptide N-tetradecanoyltransferase (Plasmodium falciparum, UniProt Q9U419); enzyme activity, inhibitor, CPM fluorescence; with: substrate 4.0 µM): > 100000 nM

CC(C)(C)OC(=O)C1=C[C@](C)(C(=O)OCC#Cc2ccncc2)CCC1=O
Ki (MAPK14; D-peptide displacement, fluorescence polarization): 1800 ± 700 nM

CCCCCCCCC(CCCC=CCCCC(CCCCCCCC)C(=O)OCC1(CO)CC(=C(C)C)C(=O)O1)C(=O)OCC1(CO)CC(=C(C)C)C(=O)O1 (racemic)
Ki (PRKCD (Homo sapiens, UniProt Q05655); binding, [3H]PDBu competition; with: phosphatidylserine 100 µg/mL): 3.11 ± 0.22 nM

COC(=O)C1(C)C=C(C(=O)Nc2ccccc2)C(=O)CC1 (centres unmarked)
Ki (MAPK14; D-peptide displacement, fluorescence polarization): 19300 ± 3100 nM

C[C@H](NC(=O)c1cc(C(=O)O)cc([C@H]2CCN[C@@H]2C(=O)O)c1)C(=O)O
Ki (Glutamate receptor ionotropic, kainate 3; binding, radioligand binding; Sf9 membranes; homomeric receptor, with: [3H]kainate): 17800 ± 2100 nM

O[C@@H](c1ccc(F)cc1)C(F)(F)CCN1CCC(O)(c2ccc(Cl)cc2)CC1 (racemic)
Ki (Tmem97 (Rattus norvegicus, UniProt Q5U3Y7)): 30.9 ± 4.3 nM

N#Cc1cccc(C(=O)N2C[C@H](O)C[C@H]2C(=O)NCc2ccc(-c3cnco3)cc2)c1
Ki (VHL with elongin B, C; inhibitor, fluorescence polarization; VHL-elonginB-elonginC complex; 1% DMSO, with: FAM-DEALA-Hyp-YIPD peptide): 35100 nM

CCOC(=O)C1(C2CCCCC2)C=C(C(=O)OC(C)(C)C)C(=O)CC1 (centres unmarked)
Ki (MAPK8; docking peptide binding, competitive inhibitor, fluorescence polarization; with: labelled JIP1 peptide): 47000 ± 8300 nM

CCCCCCCCCCCCCC[C@@H](O)[C@@H](O)[C@H](CO[C@H]1O[C@H](CO)[C@H](O)[C@H](O)[C@H]1O)NC(=O)CCCCCCCc1ccc(-c2ccccc2)cc1
Ki (Cd1d1, dimeric Ig fusion (Mus musculus, UniProt P11609); binding, competitive microarray binding; with: printed glycolipid 100 µM): 13000 ± 4800 nM

COC(=O)C1(C)C=C(C(=O)NCc2ccccc2)C(=O)CC1 (centres unmarked)
Ki (MAPK14; D-peptide displacement, fluorescence polarization): 42200 ± 2900 nM

CCCCCCCCC(CCCCCC=CCCCCCC(CCCCCCCC)C(=O)OCC1(CO)CC(=C(C)C)C(=O)O1)C(=O)OCC1(CO)CC(=C(C)C)C(=O)O1 (racemic)
Ki (Prkcd C1b domain; binding, [3H]PDBu competition; 5 min, 37 °C, with: phosphatidylserine 100 µg/mL): 1.17 ± 0.34 nM

Excerpt of the above:
CC(C)(C)OC(=O)C1=C[C@](C)(C(=O)OCC#Cc2ccncc2)CCC1=O
Ki (MAPK14; D-peptide displacement, fluorescence polarization): 1800 ± 700 nM

CCOC(=O)c1[nH]c2cc(Cl)ccc2c1C(C(=O)NCc1ccccc1)N(CC(C)C)C(C)=O (centres unmarked)
Ki (MDM2 (Homo sapiens, UniProt Q00987); binding, fluorescence polarization): 4000 nM

C#CCCCCOC(=O)[C@]1(C)C=C(C(=O)OC(C)(C)C)C(=O)CC1
Ki (MAPK14; D-peptide displacement, fluorescence polarization): 1300 nM

O=C(O)c1cc(C(=O)N[C@@H](Cc2c[nH]c3ccccc23)C(=O)O)cc([C@H]2CCN[C@@H]2C(=O)O)c1
Ki (Glutamate receptor ionotropic, kainate 3; binding, radioligand binding; Sf9 membranes; homomeric receptor, with: [3H]kainate): 10000 to 50000 nM

COC(=O)C1(C)C=C(C(=O)NC(C)(C)C)C(=O)CC1 (centres unmarked)
Ki (MAPK8; D-peptide displacement, fluorescence polarization): > 200000 nM

CCCCCCCCCCCCCC[C@@H](O)[C@@H](O)[C@H](CO[C@H]1O[C@H](CO)[C@H](O)[C@H](O)[C@H]1O)NC(=O)CCCCCCCc1ccc(-c2ccccc2)cc1
Ki (Cd1d1, dimeric Ig fusion (Mus musculus, UniProt P11609); binding, competitive microarray binding; with: printed glycolipid 100 µM): 13000 ± 4800 nM

N#Cc1ccc(S(=O)(=O)NCc2cn(CB(O)O)nn2)cc1
Ki (KPC-2 (Klebsiella pneumoniae, UniProt Q9F663); inhibitor, competition kinetics; 5 min preincubation, with: nitrocefin 100 µM): 1 ± 0.1 nM
